Assay results of several laboratories.
Each line is one published result; not all experiments were run side by side. Values joined by “and” are separate records of one study, mostly repeats; a detail may differ. ± gives the spread as reported.

Compound	test	test system	conditions	how to read	measurement	value
CN1CCN(c2cccc3c2CCN(C(=O)/C=C/c2c(-n4cnnn4)ccc(Cl)c2F)[C@@H]3C(=O)Nc2ccc(C(=O)O)cc2)C(=O)C1		healthy human subjects	intravenous infusion, 25 mg/h, 2 h		subjects with any adverse event	0%
O=C(CCCN1CCC(O)(c2ccc(Cl)cc2)CC1)c1ccc(F)cc1		male Hartley guinea pigs, anaesthetized	intravenous, 1 mg/kg group, baseline before infusion		heart rate	226 ± 0.4 beats/min
NCCCCCCCNCc1ccc(CNC(=O)c2csc3nc[nH]c(=O)c23)cc1	haemolysis	human red blood cells	1 h, 37 °C		EC50	> 100 µM
CC(C)(O)c1coc(S(=O)(=O)NC(=O)Nc2c3c(cc4c2CCC4)CCC3)c1		Sprague-Dawley rat, male, ankle joint tissue	oral, 2 mg/kg, 2 h		tissue concentration	9710 ng/g
Cc1cc(-c2nnc(N)nc2-c2ccc(F)cc2)cc(Cl)n1	item: obliterative bronchiolitis, grade ≥ 3	male IO-naive mCRPC patients	oral, dose not given		incidence of AE, immune-mediated, treatment-related	0%
C=CC(=O)Nc1cc(Nc2nccc(-c3cn(C)c4ccccc34)n2)c(OC)cc1N(C)CCN(C)C	storage stability	human plasma	24 h, on ice, LLOQ level		recovery	78.8%
[18F]c1ccc(-c2ccc3c(c2)[nH]c2ccncc23)cn1	microPET/CT imaging	APP/PS1 mouse, AD model, brain	intravenous, 15 min		SUV	0.754 ± 0.164
CNCc1ccc(-c2[nH]c3cc(F)cc4c3c2CCNC4=O)cc1		patients	oral, 600 mg twice daily, grade 1		anaemia incidence	0%
CCOc1c([C@H](C)n2nc(C)c3c(N)ncnc32)cc(Cl)c(F)c1[C@@H]1CNC(=O)C1	item: QTcF ≤450 ms	previously treated B-cell malignancy	oral, 15 mg once daily, overall population		ECG observations	86.7%
Cc1c(C(=O)O)ccc2c3n(nc12)[C@@H]1[C@H](C3)N(CC2CC2)[C@@]2(C(=O)Nc3cc(Cl)ccc32)[C@H]1c1cccc(Cl)c1F		female BALB/c nude mice, plasma	oral, 1 mg/kg twice daily, 4 h, SJSA-1 tumour-bearing		plasma concentration	930 nM and 1280 nM and 815 nM and 751 nM
Cl.[2H]C([2H])([2H])CC(=O)c1cnc(NC(=O)C2CC2)cc1Nc1cccc(-c2ncn(C([2H])([2H])[2H])n2)c1OC	geometric mean	human	25 mg single dose, fasted, liquid		CL/F	11.7 L/h
O=C(Nc1nc2cccc(-c3ccc(CN4CCS(=O)(=O)CC4)cc3)n2n1)C1CC1	item: gingival bleeding	human rheumatoid arthritis patients	oral, 200 mg once daily, 4 weeks, regardless of relatedness		treatment-emergent adverse events	0%
O=C(N[C@H](Cc1c[nH]c2ccccc12)C(=O)Nc1ccncc1)c1ccc(N2CCN(c3ccc(F)cc3F)CC2)cc1F		Swiss Webster mouse, female, intestine	oral, 50 mg/kg, 2 h, 20% Kolliphor vehicle		concentration	140000 nM
CCN1/C(=C/C(C)=O)Sc2ccc(F)cc21		cynomolgus monkey	oral, 30 mg/kg, 4 h post-dose	relative to: pre-dose	heart rate change	88.2 ± 20.7%
CNC(=O)c1ccc(-c2cnc3ncc(Cc4ccc5ncccc5c4)n3n2)cc1F		Japanese patients	oral, 400 mg, any grade		Anaemia dose reduction/interruption	1%
CC(C(=O)NCC(=O)NCC(CNC(=O)CNC(=O)C(C)N1CCN(CC(=O)[O-])CCN(CC(=O)[O-])CCN(CC(=O)[O-])CC1)(CNC(=O)CNC(=O)C(C)N1CCN(CC(=O)[O-])CCN(CC(=O)[O-])CCN(CC(=O)[O-])CC1)CNC(=O)CNC(=O)C(C)N1CCN(CC(=O)[O-])CCN(CC(=O)[O-])CCN(CC(=O)[O-])CC1)N1CCN(CC(=O)[O-])CCN(CC(=O)[O-])CCN(CC(=O)[O-])CC1.[Gd+3].[Gd+3].[Gd+3].[Gd+3] (stereo not shown)		cynomolgus monkey, bone	dose not given, day 58, PK group		lanthanide tissue concentration	0.15 ± 0.12 nmol/g
COc1ccc(-n2nc(C(N)=O)c3c2C(=O)N(c2ccc(N4CCCCC4=O)cc2)CC3)cc1		human, plasma	oral, Base population PK model		ED50	25.4 ± 5.43 mg

Compound	test	test system	conditions	how to read	measurement	value
Cc1cc(-c2nccc3c2ccn3CC(=O)Nc2ccc(-c3cnccn3)cn2)ccn1		healthy human volunteers	oral, 7 mg single dose, single ascending dose		respiratory thoracic mediastinal TEAEs	16.7%
O=c1c(O)c(-c2ccc(O)c(O)c2)oc2cc(O)cc(O)c12		human CSF	concentration not given, mean		CSF concentration	not detected
CCc1cc(C(=O)NC)c2nccc(N3CCc4c(cc(Cn5ccnc5)cc4-c4cn(C)nc4C(F)(F)F)C3=O)c2c1		Sprague Dawley rats	oral, 50 mg/kg once daily, 7 days		blood CHCM	307 ± 5.2 g/L
COc1cccc(OC)c1-c1cc(C(=O)NC2(C(=O)O)C3CC4CC(C3)CC2C4)nn1-c1ccc(C(=O)N(C)CCCN(C)CCCN(C)C(=O)CN2CCN(CC(=O)[O-])CCN(CC(=O)[O-])CCN(CC(=O)[O-])CC2)cc1C(C)C.[177Lu+3] (stereo not shown)		mouse HT-29 xenograft	168 h, biodistribution	relative to: tumour over stomach	tumour-to-stomach ratio	29.6
C[C@H](CS)C(=O)N1CCC[C@H]1C(=O)O		male Hartley guinea pigs, anaesthetized	intravenous, 30 mg/kg group, baseline before infusion		heart rate	214 ± 0.5 beats/min
O=C(Nc1cnccc1Cl)N1CCN(Cc2ccc3c(c2)OC(F)(F)O3)CC1	item: Dizziness	healthy elderly humans	100 mg once daily, 10 days		volunteers with adverse event	0%
CN(C(=O)n1cnc(-c2cccnc2)c1)C1CCCCC1		Wistar rat, cerebral cortex	oral, 10 mg/kg, 1 h, single dose		tissue concentration	76 ± 16.5 ng/g
COc1cc(N)c(Cl)cc1C(=O)NC1CCN(CCCOc2ccc(F)cc2)CC1OC (stereo not shown)		male Hartley guinea pigs, anaesthetized	intravenous, 0.3 mg/kg over 10 min, after infusion		heart rate	208 ± 0.6 beats/min
N#Cc1ccc2c(c1)[C@H]1CCCN(C(=O)c3ccc4[nH]cnc4c3)[C@H]1C2		human, male	360 mg, day 15		DHEA-S level	5.2 µmol/L
C=CC(=O)NC1CCN(c2ncc3ncnc(Nc4ccc(Oc5ccc6c(c5)ncn6C)c(C)c4)c3n2)CC1	item: blood and lymphatic disorders (SOC)	human male	oral, dose not given, CTCAE on-treatment AEs		adverse events incidence	0%
OC[C@H]1O[C@@H](c2ccc(Cl)c(Cc3ccc(O[C@H]4CCOC4)cc3)c2)[C@H](O)[C@@H](O)[C@@H]1O		Japanese type 1 diabetes patients, blood	25 mg, day 28	relative to: baseline	change in haematocrit	-0.1%
Cn1cc(Nc2nccc(-c3ccc4c(c3)CN(C3COC3)CC[C@H]4NC(=O)c3cn(C(C)(C)C)nn3)n2)cn1		human, whole blood	300 mg twice daily, day 14	relative to: pre-dose baseline	non-switched memory B cell change	19.4%
O=C(O)c1ccccc1O		human CSF	concentration not given, mean		CSF concentration	not detected
COc1cc(C2=CCCc3c2ccc(OC)c3OC(C)(C)c2ccc([N+](=O)[O-])s2)cc(OC)c1OC	non-enzymatic, no POR	phosphate buffer	24 h, pH 7.4		parent drug release	1.9%
C=CC(=O)NC1CCN(c2ncc3ncnc(Nc4ccc(Oc5ccc6c(c5)ncn6C)c(C)c4)c3n2)CC1		healthy male volunteers, plasma	oral solution, 60 mg	relative to: compound over total radioactivity	AUC0-24 ratio	0.781
Cc1ccc([C@@H]2O[C@H](CO)[C@@H](O)[C@H](O)[C@H]2O)cc1Cc1ccc(-c2ccc(F)cc2)s1		Japanese type 2 diabetes patients	25 mg, day 3, 24 h urine collection	relative to: baseline	urinary potassium excretion change	-1.7 mEq
CO[C@H]1/C=C/O[C@@]2(C)Oc3c(C)c(O)c4c(O)c(c(/C=N/N5CCN(C)CC5)c(O)c4c3C2=O)NC(=O)/C(C)=C\C=C\[C@H](C)[C@H](O)[C@@H](C)[C@@H](O)[C@@H](C)[C@H](OC(C)=O)[C@@H]1C		healthy human volunteers	oral, 600 mg, itraconazole cohort, added: gepotidacin 1500 mg		incidence of device site dermatitis	6%

Some of these lines once more:
Compound	test	test system	conditions	how to read	measurement	value
C=CC(=O)NC1CCN(c2ncc3ncnc(Nc4ccc(Oc5ccc6c(c5)ncn6C)c(C)c4)c3n2)CC1		healthy male volunteers, plasma	oral solution, 60 mg	relative to: compound over total radioactivity	AUC0-24 ratio	0.781
O=C(Nc1nc2cccc(-c3ccc(CN4CCS(=O)(=O)CC4)cc3)n2n1)C1CC1	item: gingival bleeding	human rheumatoid arthritis patients	oral, 200 mg once daily, 4 weeks, regardless of relatedness		treatment-emergent adverse events	0%
Cc1ccc([C@@H]2O[C@H](CO)[C@@H](O)[C@H](O)[C@H]2O)cc1Cc1ccc(-c2ccc(F)cc2)s1		Japanese type 2 diabetes patients	25 mg, day 3, 24 h urine collection	relative to: baseline	urinary potassium excretion change	-1.7 mEq
